Published values gathered from unrelated publications.
Every numbered part comes from another study and shows a few of its results, in no order.
Sequence of UniProt Q13283 (whole entry, looked up): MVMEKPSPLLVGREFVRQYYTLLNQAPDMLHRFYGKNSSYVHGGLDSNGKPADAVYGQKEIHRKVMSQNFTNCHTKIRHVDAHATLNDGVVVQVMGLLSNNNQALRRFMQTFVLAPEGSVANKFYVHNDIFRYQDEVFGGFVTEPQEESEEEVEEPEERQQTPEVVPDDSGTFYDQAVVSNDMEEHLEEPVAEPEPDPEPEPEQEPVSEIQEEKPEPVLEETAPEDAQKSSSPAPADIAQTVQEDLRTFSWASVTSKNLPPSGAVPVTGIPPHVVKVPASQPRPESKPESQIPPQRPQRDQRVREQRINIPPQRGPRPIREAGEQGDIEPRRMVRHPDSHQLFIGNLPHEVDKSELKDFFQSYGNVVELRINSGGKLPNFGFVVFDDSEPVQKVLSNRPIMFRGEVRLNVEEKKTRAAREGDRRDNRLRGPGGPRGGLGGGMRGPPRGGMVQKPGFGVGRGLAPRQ

Block 1
Target: Centromere-binding protein 1, full length, N-terminal tag (CBF1, Saccharomyces cerevisiae, UniProt P17106, residues 1-351)
Sequence of UniProt P17106 (whole entry, looked up): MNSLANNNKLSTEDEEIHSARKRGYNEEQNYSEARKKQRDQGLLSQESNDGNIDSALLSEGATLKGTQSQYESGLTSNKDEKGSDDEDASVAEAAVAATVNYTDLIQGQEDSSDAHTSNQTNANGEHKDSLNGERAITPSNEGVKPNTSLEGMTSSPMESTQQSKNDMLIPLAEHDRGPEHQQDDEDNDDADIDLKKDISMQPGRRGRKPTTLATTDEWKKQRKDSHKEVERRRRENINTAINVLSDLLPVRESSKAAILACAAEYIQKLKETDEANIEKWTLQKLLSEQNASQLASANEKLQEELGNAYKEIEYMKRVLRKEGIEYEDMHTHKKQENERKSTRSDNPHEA
Method: protein-binding microarray
Molecule type: double-stranded DNA, one strand shown
Matrix: in vitro
Concentration: 0.8 µM
Notes: whole 60-bp probe, no competitor
Reading: higher = stronger binding
Endpoint: fluorescence intensity
GAACTACTTTCTTTCTACGTGACATAAACGAGGTAGGTCTTGATTCGCTTGACGCTGCTG: 868 a.u.
CTAGTTGATACAATTCATGTGGGACACTAGAGATTCGTCTTGATTCGCTTGACGCTGCTG: 521 a.u.
CTATATGAGCGAGGAAACGTGATTGAGAGTTATTTCGTCTTGATTCGCTTGACGCTGCTG: 1150 a.u.
GAATGTATTGTTGGTCACACATATATAGATGCCTAGGTCTTGATTCGCTTGACGCTGCTG: 692 a.u.

Block 2
Target: Histone acetyltransferase KAT6A, winged helix 2, GST fusion (KAT6A, Homo sapiens, UniProt Q92794, residues 85-181)
Method: protein binding microarray
Molecule type: double-stranded DNA, one strand shown
Matrix: in vitro
Concentration: not given
Notes: 8-mer, flanks averaged, mean of 2 arrays, mostly near background
Reference: not given
Reading: higher = stronger binding
Endpoint: E-score
Target sequence (chain): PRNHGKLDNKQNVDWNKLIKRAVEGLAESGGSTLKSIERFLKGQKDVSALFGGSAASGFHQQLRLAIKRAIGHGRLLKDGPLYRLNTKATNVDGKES
AGTTCTTG: 0.0767
GTGCGATA: -0.03
CACTTAGG: -0.0712

Further values, each from its own experiment
Fmr1 C-terminal low-complexity region: Fragile X messenger ribonucleoprotein 1, C-terminal low-complexity region (Fmr1, Mus musculus, UniProt P35922)
GGGAGUUCUACAGUCCGACGAUCUGGGGACAAGCUGACAGCAGCCAUGGCGAGCGGCAGUGGAGACAGCGUCACCCGUCGGAGCGUGGCAUCACAGUUUUUCACUCAAGAGGAUGGAAUUCUCGGGUGUCAAGG
log2 enrichment (Ras GTPase-activating protein-binding protein 1, RRM domain (G3BP1, Homo sapiens, UniProt Q13283); RNA Bind-n-Seq; RNA, in vitro; 1 µM, whole 134-nt RNA, ends assumed, with: 150 mM KCl; reference: input library, higher = stronger binding): -0.326

PhoQ, residues 284 288 289 292 302 303 SVTLVV
fold induction (PhoP, residues 12 14 15 18 19 FWNTL (Escherichia coli, UniProt P23836); Sort-seq, item: YFP reporter; E. coli; PhoQ-PhoP variant library, with: 10 µM Mg2+; reference: high Mg2+ state, higher = stronger signaling): 8.97

GGGAGUUCUACAGUCCGACGAUCUCCUGUGCUACACAUCGUAUGUACCGAAUCAAACCCCCAAACCCCCAAACCCCCCCAAAAAAGUAUUAUGUUACGCCGUUCGGAUCUGCAUGGAAUUCUCGGGUGUCAAGG (7-deaza-guanosine replaces G)
log2 enrichment (Fmr1 C-terminal low-complexity region; RNA Bind-n-Seq; RNA, in vitro; 200 nM, whole 134-nt RNA, ends assumed, with: 150 mM LiCl; reference: input library, higher = stronger binding): 0.833

GGGAGUUCUACAGUCCGACGAUCCCUGUGCUACACAUCGUAUGUACCGAAUCGGGAAAAAAAGGGAAAAAAAGGAAAAAAAGGGAAAGUAUUAUGUUACGCCGUUCGGAUCUGUGGAAUUCUCGGGUGUCAAGG (7-deaza-guanosine replaces G)
log2 enrichment (Fmr1 C-terminal low-complexity region; RNA Bind-n-Seq; RNA, in vitro; 200 nM, whole 134-nt RNA, ends assumed, with: 150 mM LiCl; reference: input library, higher = stronger binding): -0.0269

Excerpt of the above (further values, each from its own experiment):
GGGAGUUCUACAGUCCGACGAUCUGGGGACAAGCUGACAGCAGCCAUGGCGAGCGGCAGUGGAGACAGCGUCACCCGUCGGAGCGUGGCAUCACAGUUUUUCACUCAAGAGGAUGGAAUUCUCGGGUGUCAAGG
log2 enrichment (Ras GTPase-activating protein-binding protein 1, RRM domain (G3BP1, Homo sapiens, UniProt Q13283); RNA Bind-n-Seq; RNA, in vitro; 1 µM, whole 134-nt RNA, ends assumed, with: 150 mM KCl; reference: input library, higher = stronger binding): -0.326
